Published values gathered from unrelated publications.
Each line is one published result; not all experiments were run side by side. Numbers after ± are the reported error.

| SMILES | assay | test system | setting | quantity | result |
| --- | --- | --- | --- | --- | --- |
| CC(C)CC(=O)OC[C@H]1O[C@@](C#N)(c2ccc3c(N)ncnn23)[C@H](O)[C@@H]1O | – | Humans plasma | 5 µM, 60 min | remaining compound | 0.12 ± 0.01% |
| CCN1[C@@H](C(=O)NC23CCC(C(=O)O)(CC2)CC3)[C@H](c2cccc(Cl)c2F)[C@]2(C(=O)Nc3cc(Cl)ccc32)C12CCCCC2 | – | patients with advanced solid tumours | oral, dose not given, all doses | grade 3/4 anemia incidence | 23.8% |
| COC[C@@H](CC(C)C)NC(=O)c1ccc(C)c(C)c1 | – | Hsd:ICR (CD-1) mouse, female, bone marrow | oral, 1352 mg/kg, 48 h | PCE to total erythrocyte ratio | 0.513 |
| NCCCC[C@@H]1NC(=O)[C@@H](Cc2c[nH]c3ccccc23)NC(=O)[C@H](c2ccccc2)NC(=O)[C@@H]2C[C@@H](OC(=O)NCCN)CN2C(=O)[C@H](Cc2ccccc2)NC(=O)[C@H](Cc2ccc(OCc3ccccc3)cc2)NC1=O | – | healthy human volunteers | 600 µg twice daily | subjects with abdominal discomfort | 9% |
| CCc1ccc(CC/C=C/c2ccc3c(c2)C(=O)CC3)cc1 | – | Sprague-Dawley rat, male | oral, 450 mg/kg/day, 14 days | Lymphocyte percentage | 80.3% |
| Cc1cccc(Cn2nc(C3CC3)c3c(NC(=O)c4cnc5cc(OCCN6CCN(C)CC6)ccn45)cccc32)n1 | CTCAE v4.03, measured: blood alkaline phosphatase increased | advanced solid tumour patients | oral, dose not given, all cohorts, together with: pembrolizumab IV every 3 weeks | all-cause adverse events | 15.8% |
| CCOC(=O)C(CC)(CCCSCCOCCOCCOCCOCCNC(=O)OC(C)(C)C)NC(=O)c1ccc(C2CC2)c(Cc2ccc(F)cc2)n1 (stereo not shown) | – | aqueous buffer with DMSO | – | kinetic solubility | < 0.2 µg/mL |
| COc1ncccc1-c1cnn2ccc(N3CCN(C(=O)OC(C)C)CC3)nc12 | – | mouse nerve ligation model, brain | oral, 10 mg/kg, 30 min after last dose, repeat dosing day 3 | drug concentration | 9.9 µM |
| CO[C@H]1C[C@@H]2CC[C@@H](C)[C@@](O)(O2)C(=O)C(=O)N2CCCC[C@H]2C(=O)O[C@H]([C@H](C)C[C@@H]2CC[C@@H](OC(=O)NCCOCCOCCOCCOCCOCCOCCOCCOCCC(=O)N3CCc4cc(Cn5nc(-c6ccc7oc(N)nc7c6)c6c(N)ncnc65)ccc4C3)[C@H](OC)C2)C[C@@H](O)[C@H](C)/C=C(\C)[C@@H](O)[C@@H](OC)C(=O)[C@H](C)C[C@H](C)/C=C/C=C/C=C/1C | phase 1 dose escalation, measured: decreased appetite | advanced solid tumour patients | intravenous, 12 mg weekly, any grade | TRAE incidence | 8.3% |
| CC(=O)c1c(C)c2cnc(Nc3ccc(C4CCN(CCS(C)(=O)=O)CC4)cn3)nc2n(C2CCCC2)c1=O | – | human, plasma | oral, 50 mg twice daily, day 21, multiple dose, together with: letrozole | Tmax | 1.94 h |
| C[C@@H]1NC(=O)[C@H](CCCCNC(=O)CO/N=C/C(=O)NCCCC[C@@H]2NC(=O)[C@@H](Cc3ccccc3)NC(=O)[C@H](CC(=O)O)NC(=O)CNC(=O)[C@H](CCCNC(=N)N)NC2=O)NC(=O)CNC(=O)[C@@H]2CCCN2C(=O)[C@H](CCCCNC(=O)CO/N=C/C(=O)NCCCC[C@@H]2NC(=O)[C@@H](Cc3ccccc3)NC(=O)[C@H](CC(=O)O)NC(=O)CNC(=O)[C@H](CCCNC(=N)N)NC2=O)NC(=O)[C@H](CCCCNC(=O)[C@H](CCCCN)NC(=O)[C@H](Cc2ccccc2)NC(=O)CNC(=O)CN2CCCNCCNCCCNCC2)NC(=O)[C@H](CCCCNC(=O)CO/N=C/C(=O)NCCCC[C@@H]2NC(=O)[C@@H](Cc3ccccc3)NC(=O)[C@H](CC(=O)O)NC(=O)CNC(=O)[C@H](CCCNC(=N)N)NC2=O)NC(=O)CNC(=O)[C@@H]2CCCN2C(=O)[C@H](CCCCNC(=O)CO/N=C/C(=O)NCCCC[C@@H]2NC(=O)[C@@H](Cc3ccccc3)NC(=O)[C@H](CC(=O)O)NC(=O)CNC(=O)[C@H](CCCNC(=N)N)NC2=O)NC1=O [copper-64 labelled] | biodistribution after PET | mouse, U-87 MG tumour xenograft, blood | intravenous, 24 h | tissue uptake | 0.09 ± 0.01 %ID/g |
| CN1CC[C@@H](c2c(O)cc(O)c3c(=O)cc(-c4ccc(C(F)(F)F)cc4Cl)oc23)[C@@H]1CO | measured: Hypotension | relapsed B-cell malignancies | oral, 100 mg, grade 3-4, intermittent dosing | patients with adverse event | 0% |
| COc1cc2c(Oc3ccc4[nH]c(C)cc4c3F)ccnc2cc1OCC1(N)CC1 | – | paediatric recurrent refractory sarcoma | 8 mg | grade 3 ALT elevation | 0% |

A few entries again:
| SMILES | assay | test system | setting | quantity | result |
| --- | --- | --- | --- | --- | --- |
| CC(=O)c1c(C)c2cnc(Nc3ccc(C4CCN(CCS(C)(=O)=O)CC4)cn3)nc2n(C2CCCC2)c1=O | – | human, plasma | oral, 50 mg twice daily, day 21, multiple dose, together with: letrozole | Tmax | 1.94 h |
